Assay results pooled from the literature.
Each numbered part is a random draw from the data of one study; scales do not carry over between parts. Positions count from the first letter of the parent shown.

Set 1
Target: Sal-like protein 4, full length isoform B (SALL4, Homo sapiens, UniProt Q9UJQ4-2, residues 1-616)
Technique: universal PBM
Molecule type: double-stranded DNA, one strand shown
Medium: in vitro
Concentration: not given
Notes: 8-mer, flanks averaged, mean of replicates
Reading: higher = stronger binding
`ACGGCACT` has an E-score of -0.206.
For `CGTGGCGC`, the E-score was -0.271.
With `CCAGTGCA` the E-score was -0.199.
The E-score of `GTCGAGAA` is reported as 0.037.
`CATGAGGG` has an E-score of -0.0622.
`CATACACG` gave an E-score of 0.134.
With `CCTCTCCG` the E-score was -0.34.
`TGGACACA` gave an E-score of -0.0121.
`CTCGCCCC` has an E-score of -0.207.
The E-score of `GCACCAAA` is reported as 0.0983.
`AAGGCGTG` has an E-score of -0.176.
With `ACAAACCC` the E-score was 0.0641.
`CGAACGAA` gave an E-score of -0.138.
With `AGCCTCCT` the E-score was -0.223.
`GAATCTGA` gave an E-score of -0.0244.

Set 2
Target: CCNA2, cyclin fold, Cln2 fusion (human)
Technique: yeast growth competition, sequencing
Medium: yeast
Notes: weak parent motif
Reference: not given
Reading: higher = stronger binding
Parent: SLBP docking peptide (human); ARYKRKLLINDFG
`K6V`: “normalised enrichment score” 1.82.
Under “normalised enrichment score”, `G13K` is recorded as 1.55.
`F12T` — result for “normalised enrichment score”: 0.377.
For `R5N`, “normalised enrichment score” read 0.719.
For `R5G`, “normalised enrichment score” read 0.73.
`K4N` — result for “normalised enrichment score”: 1.31.
`K4F`: “normalised enrichment score” 1.85.
`N10G`: “normalised enrichment score” 2.33.
`R2Y`: “normalised enrichment score” 2.08.
`Y3I` — result for “normalised enrichment score”: 1.43.
`I9W` — result for “normalised enrichment score”: 2.
`G13N`: “normalised enrichment score” 2.29.
For `R5T`, “normalised enrichment score” read 0.527.
For `L8E`, “normalised enrichment score” read 1.49.
`F12Q` — result for “normalised enrichment score”: 0.794.
`G13Q` — result for “normalised enrichment score”: 0.481.

Set 3
Target: ABI1, truncated, D143A, DHFR fusion (Arabidopsis thaliana)
Technique: DHFR PCA, deep sequencing
Medium: yeast
Notes: methotrexate growth selection, single substitutions
Together with: (+)-ABA 1.4 µM
Reference: wild-type fitted maximum
Reading: higher = stronger binding
Parent: PYL1, truncated, DHFR fusion (Arabidopsis thaliana); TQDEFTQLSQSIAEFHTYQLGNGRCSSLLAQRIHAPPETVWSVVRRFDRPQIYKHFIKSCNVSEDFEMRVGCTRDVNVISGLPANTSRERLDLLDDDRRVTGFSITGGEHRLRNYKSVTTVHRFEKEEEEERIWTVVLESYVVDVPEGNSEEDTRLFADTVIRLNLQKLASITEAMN; partner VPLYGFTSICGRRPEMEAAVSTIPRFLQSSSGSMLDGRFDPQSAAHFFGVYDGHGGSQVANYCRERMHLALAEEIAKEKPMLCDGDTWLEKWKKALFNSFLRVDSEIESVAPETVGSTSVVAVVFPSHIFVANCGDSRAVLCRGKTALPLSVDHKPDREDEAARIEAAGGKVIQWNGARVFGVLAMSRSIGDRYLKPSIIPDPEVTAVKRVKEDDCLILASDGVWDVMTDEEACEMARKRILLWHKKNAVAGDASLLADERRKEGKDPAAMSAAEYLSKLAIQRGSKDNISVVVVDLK
Under “relative binding score”, `F47D` is recorded as -9.74%.
For `T1Y`, “relative binding score” read 44.9%.
`A35D`: “relative binding score” 2.48%.
Under “relative binding score”, `L82M` is recorded as 35.6%.
Under “relative binding score”, `R49H` is recorded as 31.6%.
Under “relative binding score”, `A30E` is recorded as 24.5%.
`V121D` — result for “relative binding score”: -0.115%.

Other studies, line by line
`PhoQ, residues 284 288 289 292 302 303 AEGLLW` gave a fold induction of 0.755 (PhoP, residues 12 14 15 18 19 NFCKL (Escherichia coli, UniProt P23836); Sort-seq, refers to: YFP reporter; E. coli; PhoQ-PhoP variant library, together with: 10 µM Mg2+; reference: high Mg2+ state, higher = stronger signaling).
